Measurements from different studies.
Lines come from different studies, so protocols differ. ± gives the spread as reported.
GLP1R: Glucagon-like peptide 1 receptor (GLP1R, Homo sapiens, UniProt P43220)
UniProt P42680, sequence (whole entry, unmodified, looked up): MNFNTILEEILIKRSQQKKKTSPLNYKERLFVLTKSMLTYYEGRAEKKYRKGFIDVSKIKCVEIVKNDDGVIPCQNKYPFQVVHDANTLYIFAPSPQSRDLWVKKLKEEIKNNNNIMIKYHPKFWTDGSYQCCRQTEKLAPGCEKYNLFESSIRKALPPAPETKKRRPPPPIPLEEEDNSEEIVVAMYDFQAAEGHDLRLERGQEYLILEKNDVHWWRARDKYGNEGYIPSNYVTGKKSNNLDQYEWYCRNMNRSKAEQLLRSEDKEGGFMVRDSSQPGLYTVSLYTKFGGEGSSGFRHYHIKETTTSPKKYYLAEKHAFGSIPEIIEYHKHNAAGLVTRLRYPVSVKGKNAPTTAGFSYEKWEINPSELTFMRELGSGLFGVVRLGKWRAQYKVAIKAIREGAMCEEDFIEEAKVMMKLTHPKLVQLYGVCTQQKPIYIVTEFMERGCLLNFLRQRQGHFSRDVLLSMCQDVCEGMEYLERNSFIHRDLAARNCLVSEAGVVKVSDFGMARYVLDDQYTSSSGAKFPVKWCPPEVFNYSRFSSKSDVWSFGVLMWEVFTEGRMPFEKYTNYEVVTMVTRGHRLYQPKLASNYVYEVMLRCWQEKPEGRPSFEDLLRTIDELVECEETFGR
UniProt P41180, sequence (whole entry, looked up): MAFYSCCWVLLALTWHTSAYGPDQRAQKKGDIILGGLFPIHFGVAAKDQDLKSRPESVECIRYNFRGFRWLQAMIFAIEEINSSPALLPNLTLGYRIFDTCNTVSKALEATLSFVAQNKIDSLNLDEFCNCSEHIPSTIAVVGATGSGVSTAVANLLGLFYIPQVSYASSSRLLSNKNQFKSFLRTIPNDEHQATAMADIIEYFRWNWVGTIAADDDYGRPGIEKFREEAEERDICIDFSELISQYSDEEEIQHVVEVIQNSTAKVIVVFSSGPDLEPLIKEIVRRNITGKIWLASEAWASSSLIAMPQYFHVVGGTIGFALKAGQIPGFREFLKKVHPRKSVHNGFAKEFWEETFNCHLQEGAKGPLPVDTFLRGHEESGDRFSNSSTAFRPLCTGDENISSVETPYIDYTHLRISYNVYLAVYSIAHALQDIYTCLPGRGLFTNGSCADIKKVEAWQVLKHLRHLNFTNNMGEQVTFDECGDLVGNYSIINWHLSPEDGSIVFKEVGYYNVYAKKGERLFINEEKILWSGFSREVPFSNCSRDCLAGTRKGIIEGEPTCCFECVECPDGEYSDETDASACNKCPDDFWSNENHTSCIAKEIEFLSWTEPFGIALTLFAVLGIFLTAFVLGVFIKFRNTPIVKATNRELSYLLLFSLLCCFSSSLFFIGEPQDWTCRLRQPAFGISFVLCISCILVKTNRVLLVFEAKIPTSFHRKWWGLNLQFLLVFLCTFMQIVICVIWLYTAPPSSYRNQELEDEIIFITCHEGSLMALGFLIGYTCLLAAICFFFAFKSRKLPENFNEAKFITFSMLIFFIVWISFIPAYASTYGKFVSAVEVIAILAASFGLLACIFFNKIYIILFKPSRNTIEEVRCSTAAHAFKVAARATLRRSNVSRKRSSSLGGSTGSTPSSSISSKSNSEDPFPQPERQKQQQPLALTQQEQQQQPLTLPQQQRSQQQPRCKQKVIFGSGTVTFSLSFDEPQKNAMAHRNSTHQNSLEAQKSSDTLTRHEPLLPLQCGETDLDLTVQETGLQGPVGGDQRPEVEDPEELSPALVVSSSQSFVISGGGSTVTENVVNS
UniProt Q704Y3, sequence (whole entry, unmodified, looked up): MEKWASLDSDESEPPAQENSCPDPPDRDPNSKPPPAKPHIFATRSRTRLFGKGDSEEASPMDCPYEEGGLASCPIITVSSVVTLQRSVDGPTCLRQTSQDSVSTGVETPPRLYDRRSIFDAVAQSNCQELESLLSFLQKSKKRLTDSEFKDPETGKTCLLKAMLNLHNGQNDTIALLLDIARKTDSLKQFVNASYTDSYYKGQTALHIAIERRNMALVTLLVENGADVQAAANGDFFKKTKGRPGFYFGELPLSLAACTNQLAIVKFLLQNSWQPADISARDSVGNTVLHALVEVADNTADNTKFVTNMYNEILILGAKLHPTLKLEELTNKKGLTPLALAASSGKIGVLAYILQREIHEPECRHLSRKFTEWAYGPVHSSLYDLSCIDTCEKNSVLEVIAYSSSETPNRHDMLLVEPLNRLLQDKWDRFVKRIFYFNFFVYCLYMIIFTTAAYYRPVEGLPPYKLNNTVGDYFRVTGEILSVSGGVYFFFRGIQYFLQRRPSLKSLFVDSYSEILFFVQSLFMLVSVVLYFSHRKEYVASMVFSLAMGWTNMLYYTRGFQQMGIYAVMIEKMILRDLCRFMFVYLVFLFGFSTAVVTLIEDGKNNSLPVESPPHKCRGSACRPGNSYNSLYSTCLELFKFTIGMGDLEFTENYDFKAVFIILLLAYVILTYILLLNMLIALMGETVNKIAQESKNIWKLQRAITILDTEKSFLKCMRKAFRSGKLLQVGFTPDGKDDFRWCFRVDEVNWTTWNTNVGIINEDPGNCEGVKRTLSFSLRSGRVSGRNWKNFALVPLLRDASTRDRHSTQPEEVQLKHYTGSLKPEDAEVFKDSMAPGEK
UniProt P28335, sequence (whole entry, looked up): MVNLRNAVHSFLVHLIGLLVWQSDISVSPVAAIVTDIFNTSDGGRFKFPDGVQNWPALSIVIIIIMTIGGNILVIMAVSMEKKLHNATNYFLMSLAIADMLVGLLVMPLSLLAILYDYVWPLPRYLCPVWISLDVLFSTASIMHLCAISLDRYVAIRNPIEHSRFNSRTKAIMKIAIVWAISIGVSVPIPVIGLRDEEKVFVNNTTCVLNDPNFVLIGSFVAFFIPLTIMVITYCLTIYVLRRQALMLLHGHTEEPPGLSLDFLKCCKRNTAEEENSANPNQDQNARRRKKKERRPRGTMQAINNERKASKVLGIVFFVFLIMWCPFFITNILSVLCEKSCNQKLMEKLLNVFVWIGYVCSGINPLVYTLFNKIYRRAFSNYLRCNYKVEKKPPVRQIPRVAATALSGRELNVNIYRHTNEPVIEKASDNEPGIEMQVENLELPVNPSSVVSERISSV
UniProt Q4J6C6, sequence (whole entry, looked up): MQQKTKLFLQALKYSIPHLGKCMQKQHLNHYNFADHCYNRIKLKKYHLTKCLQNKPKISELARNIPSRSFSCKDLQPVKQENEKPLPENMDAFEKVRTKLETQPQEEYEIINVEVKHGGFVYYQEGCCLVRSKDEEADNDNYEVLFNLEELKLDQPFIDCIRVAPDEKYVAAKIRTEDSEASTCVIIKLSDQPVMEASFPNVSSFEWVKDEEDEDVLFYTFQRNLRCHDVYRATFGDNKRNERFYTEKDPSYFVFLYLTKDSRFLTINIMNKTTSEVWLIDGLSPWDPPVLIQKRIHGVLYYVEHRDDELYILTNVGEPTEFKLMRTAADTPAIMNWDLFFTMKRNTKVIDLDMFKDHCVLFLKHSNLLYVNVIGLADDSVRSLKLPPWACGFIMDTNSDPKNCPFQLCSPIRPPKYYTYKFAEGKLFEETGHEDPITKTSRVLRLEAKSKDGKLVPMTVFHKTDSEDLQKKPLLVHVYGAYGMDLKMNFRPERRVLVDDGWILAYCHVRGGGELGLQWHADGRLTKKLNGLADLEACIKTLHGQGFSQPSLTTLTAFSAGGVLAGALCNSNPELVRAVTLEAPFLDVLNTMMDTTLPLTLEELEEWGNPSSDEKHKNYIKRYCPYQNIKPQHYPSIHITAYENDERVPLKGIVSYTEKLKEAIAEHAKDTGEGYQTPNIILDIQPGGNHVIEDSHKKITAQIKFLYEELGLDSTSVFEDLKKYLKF
UniProt P08172, sequence (whole entry, looked up): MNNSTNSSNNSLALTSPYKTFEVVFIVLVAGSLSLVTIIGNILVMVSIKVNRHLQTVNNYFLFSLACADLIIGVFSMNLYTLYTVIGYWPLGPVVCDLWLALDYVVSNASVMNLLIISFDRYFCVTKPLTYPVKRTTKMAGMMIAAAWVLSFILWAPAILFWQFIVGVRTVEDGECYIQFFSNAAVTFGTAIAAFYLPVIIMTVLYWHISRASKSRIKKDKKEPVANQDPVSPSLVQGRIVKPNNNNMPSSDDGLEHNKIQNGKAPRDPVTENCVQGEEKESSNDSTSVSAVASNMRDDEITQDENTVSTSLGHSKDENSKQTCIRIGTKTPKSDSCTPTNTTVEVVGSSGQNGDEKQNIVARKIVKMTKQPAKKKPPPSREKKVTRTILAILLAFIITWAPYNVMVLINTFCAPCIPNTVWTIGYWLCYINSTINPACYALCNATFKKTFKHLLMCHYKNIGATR
UniProt Q14680, sequence (whole entry, looked up): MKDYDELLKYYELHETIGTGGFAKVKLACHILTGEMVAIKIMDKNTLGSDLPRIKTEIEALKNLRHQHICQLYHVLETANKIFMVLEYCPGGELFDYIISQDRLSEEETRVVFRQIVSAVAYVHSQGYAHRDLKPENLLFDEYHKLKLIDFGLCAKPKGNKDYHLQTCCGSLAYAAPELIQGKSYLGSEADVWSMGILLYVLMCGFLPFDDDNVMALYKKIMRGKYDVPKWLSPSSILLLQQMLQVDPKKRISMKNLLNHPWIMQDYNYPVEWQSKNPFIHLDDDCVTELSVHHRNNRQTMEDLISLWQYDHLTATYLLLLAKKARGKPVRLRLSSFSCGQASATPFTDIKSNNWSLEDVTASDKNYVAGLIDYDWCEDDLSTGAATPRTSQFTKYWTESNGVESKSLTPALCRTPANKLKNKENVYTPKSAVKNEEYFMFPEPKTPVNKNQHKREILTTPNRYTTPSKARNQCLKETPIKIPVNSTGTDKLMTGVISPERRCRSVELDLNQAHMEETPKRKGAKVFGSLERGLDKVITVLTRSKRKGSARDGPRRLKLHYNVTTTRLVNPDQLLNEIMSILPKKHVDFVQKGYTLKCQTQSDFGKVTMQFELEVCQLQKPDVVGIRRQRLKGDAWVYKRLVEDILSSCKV

| SMILES | target or system | assay | system | setting | how to read | measurement | value |
| --- | --- | --- | --- | --- | --- | --- | --- |
| COc1cc(Nc2ncc(F)c(Nc3ccc4c(n3)NC(=O)C(C)(C)O4)n2)cc(OC)c1OC | HTR1A (Homo sapiens, UniProt P08908) |  |  |  |  | IC50 | > 10 µM |
| O=C(c1ccc(Cl)cc1)N1CCN2C(=O)N(OC(=O)N3CCOc4ccccc43)C(=O)C2C1 (stereo not drawn) | PREPL (Homo sapiens, UniProt Q4J6C6) | enzyme activity, inhibitor, MS-based ABPP | SW-620 in situ | 10 µM, 2 h, 37 °C | baseline: compound over DMSO, lower = stronger inhibition | median ratio | 1.09 |
| CC[C@H](C)[C@H](NC(=O)[C@H](Cc1ccccc1)NC(=O)[C@H](CCC(=O)O)NC(=O)[C@H](CCCNC(=N)N)NC(=O)[C@H](C)NC(=O)[C@H](C)NC(=O)[C@H](CCC(N)=O)NC(=O)[C@H](CCC(=O)O)NC(=O)[C@H](CCC(=O)O)NC(=O)[C@H](CC(C)C)NC(=O)[C@H](Cc1ccc(O)cc1)NC(=O)[C@H](CO)NC(=O)[C@H](CO)NC(=O)[C@@H](NC(=O)[C@H](CC(=O)O)NC(=O)[C@H](CO)NC(=O)[C@@H](NC(=O)[C@H](Cc1ccccc1)NC(=O)[C@@H](NC(=O)CNC(=O)[C@H](CCC(=O)O)NC(=O)[C@H](C)NC(=O)CCc1cnc[nH]1)[C@@H](C)O)[C@@H](C)O)C(C)C)C(=O)N[C@@H](C)C(=O)N[C@@H](Cc1c[nH]c2ccccc12)C(=O)N[C@@H](CC(C)C)C(=O)N[C@H](C(=O)N[C@@H](CCCNC(=N)N)C(=O)NCC(=O)N[C@@H](CCCNC(=N)N)C(=O)N[C@@H](CCCCNC(=O)COCCOCCNC(=O)COCCOCCNC(=O)CC[C@H](NC(=O)CCCCCCCCCCCCCCCCC(=O)O)C(=O)O)C(=O)NCC(=O)NCC(=O)N[C@@H](CO)C(=O)N[C@@H](CCCCNc1c(NCCCCCN(O)C(=O)CCC(=O)NCCCCCN(O)C(=O)CCC(=O)NCCCCCN(O)C(C)=O)c(=O)c1=O)C(=O)NCC(=O)NCC(=O)N[C@@H](CO)C(=O)N[C@@H](CCCCNc1c(NCCCCCN(O)C(=O)CCC(=O)NCCCCCN(O)C(=O)CCC(=O)NCCCCCN(O)C(C)=O)c(=O)c1=O)C(=O)O)C(C)C | GLP1R | cAMP reporter gene, agonist, CRE luciferase | BHK | with Zr, 1% HSA |  | EC50 | 0.1 nM |
| C[C@H](N)Cn1ncc2ccc3c(c21)CCCO3 | HTR2C (Homo sapiens, UniProt P28335) | agonist, aequorin |  |  | may be range | EC50 | 0.3 ± 0.15 nM |
| CC[C@H](C)[C@H](NC(=O)[C@H](Cc1ccccc1)NC(=O)[C@H](CCC(=O)O)NC(=O)[C@H](CCCNC(=N)N)NC(=O)[C@H](C)NC(=O)[C@H](C)NC(=O)[C@H](CCC(N)=O)NC(=O)[C@H](CCC(=O)O)NC(=O)[C@H](CCC(=O)O)NC(=O)[C@H](CC(C)C)NC(=O)[C@H](Cc1ccc(O)cc1)NC(=O)[C@H](CO)NC(=O)[C@H](CO)NC(=O)[C@@H](NC(=O)[C@H](CC(=O)O)NC(=O)[C@H](CO)NC(=O)[C@@H](NC(=O)[C@H](Cc1ccccc1)NC(=O)[C@@H](NC(=O)CNC(=O)[C@H](CCC(=O)O)NC(=O)[C@H](C)NC(=O)CCc1cnc[nH]1)[C@@H](C)O)[C@@H](C)O)C(C)C)C(=O)N[C@@H](C)C(=O)N[C@@H](Cc1c[nH]c2ccccc12)C(=O)N[C@@H](CC(C)C)C(=O)N[C@H](C(=O)N[C@@H](CCCCNc1c(NCCCCCN(O)C(=O)CCC(=O)NCCCCCN(O)C(=O)CCC(=O)NCCCCCN(O)C(C)=O)c(=O)c1=O)C(=O)NCC(=O)N[C@@H](CCCNC(=N)N)C(=O)N[C@@H](CCCCNC(=O)COCCOCCNC(=O)COCCOCCNC(=O)CC[C@H](NC(=O)CCCCCCCCCCCCCCCCC(=O)O)C(=O)O)C(=O)NCC(=O)NCC(=O)N[C@@H](CO)C(=O)N[C@@H](CCCCNc1c(NCCCCCN(O)C(=O)CCC(=O)NCCCCCN(O)C(=O)CCC(=O)NCCCCCN(O)C(C)=O)c(=O)c1=O)C(=O)O)C(C)C | GLP1R | cAMP reporter gene, agonist, CRE luciferase | BHK | with Zr, 1% HSA |  | EC50 | 0.16 nM |
| C[C@H]1CN(c2n[nH]c3nc(N[C@H]4CC[C@H](NS(=O)(=O)CCC(F)(F)F)CC4)ncc23)CCO1 | MELK (Homo sapiens, UniProt Q14680) | inhibitor, Kinobeads competition profiling |  | 0.16 µM | baseline: vehicle | relative abundance | 1.03 |
| COC(=O)C1=C(C)NC(C)=C(C(=O)OC)C1c1ccccc1[N+](=O)[O-] | CASR (Homo sapiens, UniProt P41180) | agonist |  |  |  | EC50 | 210 nM |
| CC(C)=CCc1c(O)cc2oc3cc(O)c(O)c(CC=C(C)C)c3c(=O)c2c1O | Cyclin-dependent kinase 2, with cyclin E1 (CDK2, Homo sapiens, UniProt P24941) | kinase activity, inhibitor |  |  |  | EC50 | 14200 nM |
| CC[C@H](C)[C@H](NC(=O)[C@H](Cc1ccccc1)NC(=O)[C@H](CC(=O)O)NC(=O)[C@H](CCCNC(=N)N)NC(=O)[C@@H](NC(=O)[C@H](C)NC(=O)[C@H](CC(C)C)NC(=O)[C@H](CC(N)=O)NC(=O)[C@H](CC(=O)O)NC(=O)[C@H](CC(C)C)NC(=O)[C@@H](NC(=O)[C@@H](NC(=O)[C@H](CO)NC(=O)[C@H](CCSC)NC(=O)[C@H](CCC(=O)O)NC(=O)[C@H](CC(=O)O)NC(=O)[C@H](CO)NC(=O)[C@H](Cc1ccccc1)NC(=O)[C@H](CO)NC(=O)CNC(=O)[C@H](CC(=O)O)NC(=O)[C@H](C)NC(=O)[C@@H](N)Cc1c[nH]cn1)[C@@H](C)O)[C@@H](C)CC)[C@@H](C)O)C(=O)N[C@@H](CC(N)=O)C(=O)N[C@@H](Cc1c[nH]c2ccccc12)C(=O)N[C@@H](CC(C)C)C(=O)N[C@H](C(=O)N[C@@H](CCC(N)=O)C(=O)N[C@H](C(=O)N[C@@H](CCCCN)C(=O)N[C@H](C(=O)N[C@H](C(=O)N[C@@H](CC(=O)O)C(=O)O)[C@@H](C)O)[C@@H](C)CC)[C@@H](C)O)[C@@H](C)CC | GLP1R | reporter gene, agonist, CRE-luciferase | HEK-293T | 12 h |  | EC50 | 25.4 nM |
| CC[C@H](C)[C@H](NC(=O)[C@H](Cc1ccccc1)NC(=O)[C@H](CCC(=O)O)NC(=O)[C@H](CCCNC(=N)N)NC(=O)[C@H](C)NC(=O)[C@H](C)NC(=O)[C@H](CCC(N)=O)NC(=O)[C@H](CCC(=O)O)NC(=O)[C@H](CCC(=O)O)NC(=O)[C@H](CC(C)C)NC(=O)[C@H](Cc1ccc(O)cc1)NC(=O)[C@H](CO)NC(=O)[C@H](CO)NC(=O)[C@@H](NC(=O)[C@H](CC(=O)O)NC(=O)[C@H](CO)NC(=O)[C@@H](NC(=O)[C@H](Cc1ccccc1)NC(=O)[C@@H](NC(=O)CNC(=O)[C@H](CCC(=O)O)NC(=O)[C@H](C)NC(=O)CCc1c[nH]cn1)[C@@H](C)O)[C@@H](C)O)C(C)C)C(=O)N[C@@H](C)C(=O)N[C@@H](Cc1c[nH]c2ccccc12)C(=O)N[C@@H](CC(C)C)C(=O)N[C@H](C(=O)N[C@@H](CCCNC(=N)N)C(=O)NCC(=O)N[C@@H](CCCNC(=N)N)C(=O)N[C@@H](CCCCNC(=O)COCCOCCNC(=O)COCCOCCNC(=O)CC[C@H](NC(=O)CCCCCCCCCCCCCCCCC(=O)O)C(=O)O)C(=O)NCC(=O)NCC(=O)N[C@@H](CO)C(=O)N[C@@H](CCCCNc1c(NCCCCCN(O)C(=O)CCC(=O)NCCCCCN(O)C(=O)CCC(=O)NCCCCCN(O)C(C)=O)c(=O)c1=O)C(=O)O)C(C)C [zirconium-89 labelled] |  |  | rat, stomach | iv, 3 nmol/kg, 168 h, ex vivo |  | tissue uptake | 0.17 %ID/g |
| Cc1cc(N2CCNCC2)nc2ccccc12 | CHRM2 (Homo sapiens, UniProt P08172) | ERK1/2 phosphorylation, agonist | CHO cells |  |  | EC50 | > 20000 nM |
| CC[C@H](C)[C@H](NC(=O)[C@H](Cc1ccccc1)NC(=O)[C@H](CCC(=O)O)NC(=O)[C@H](CCCNC(=N)N)NC(=O)[C@H](C)NC(=O)[C@H](C)NC(=O)[C@H](CCC(N)=O)NC(=O)[C@H](CCC(=O)O)NC(=O)[C@H](CCC(=O)O)NC(=O)[C@H](CC(C)C)NC(=O)[C@H](Cc1ccc(O)cc1)NC(=O)[C@H](CO)NC(=O)[C@H](CO)NC(=O)[C@@H](NC(=O)[C@H](CC(=O)O)NC(=O)[C@H](CO)NC(=O)[C@@H](NC(=O)[C@H](Cc1ccccc1)NC(=O)[C@@H](NC(=O)CNC(=O)[C@H](CCC(=O)O)NC(=O)[C@H](C)NC(=O)CCc1cnc[nH]1)[C@@H](C)O)[C@@H](C)O)C(C)C)C(=O)N[C@@H](C)C(=O)N[C@@H](Cc1c[nH]c2ccccc12)C(=O)N[C@@H](CC(C)C)C(=O)N[C@H](C(=O)N[C@@H](CCCCNC(=O)COCCOCCNC(=O)COCCOCCNC(=O)CC[C@H](NC(=O)CCCCCCCCCCCCCCCCC(=O)O)C(=O)O)C(=O)NCC(=O)N[C@@H](CCCNC(=N)N)C(=O)N[C@@H](CCCCNc1c(NCCCCCN(O)C(=O)CCC(=O)NCCCCCN(O)C(=O)CCC(=O)NCCCCCN(O)C(C)=O)c(=O)c1=O)C(=O)NCC(=O)NCC(=O)N[C@@H](CO)C(=O)N[C@@H](CCCCNc1c(NCCCCCN(O)C(=O)CCC(=O)NCCCCCN(O)C(=O)CCC(=O)NCCCCCN(O)C(C)=O)c(=O)c1=O)C(=O)O)C(C)C | GLP1R | cAMP reporter gene, agonist, CRE luciferase | BHK | without Zr, 0% HSA |  | EC50 | 0.0074 nM |
| Clc1cc2c(cc1Cl)Oc1cc(Cl)c(Cl)cc1O2 | Uncharacterized protein (Takifugu rubripes, UniProt Q4JHL5) | reporter gene, agonist, dual-luciferase | COS-7 | 24 h |  | EC50 | 0.32 ± 0.2 nM |
| COc1ccc(N2C(=O)N(c3c(C)cccc3Cl)Cc3cnc(Nc4ccc(C5CCN(C)CC5)cc4OC)nc32)nc1 | TEC (Homo sapiens, UniProt P42680) | kinase activity |  | 0.5 µM |  | inhibition | 92% |
| CCCCC/C=C\C/C=C\C/C=C\C/C=C\CCCC(=O)NCCO | Trpv1 (Mus musculus, UniProt Q704Y3, S513A) | ion current, agonist, whole-cell patch clamp |  | 24 °C, +80 mV |  | EC50 | 4620 ± 1190 nM |

For quick reference, copied from above:
| SMILES | target or system | assay | system | setting | how to read | measurement | value |
| --- | --- | --- | --- | --- | --- | --- | --- |
| Clc1cc2c(cc1Cl)Oc1cc(Cl)c(Cl)cc1O2 | Uncharacterized protein (Takifugu rubripes, UniProt Q4JHL5) | reporter gene, agonist, dual-luciferase | COS-7 | 24 h |  | EC50 | 0.32 ± 0.2 nM |
| COc1ccc(N2C(=O)N(c3c(C)cccc3Cl)Cc3cnc(Nc4ccc(C5CCN(C)CC5)cc4OC)nc32)nc1 | TEC (Homo sapiens, UniProt P42680) | kinase activity |  | 0.5 µM |  | inhibition | 92% |
